Measured values from different studies.
Compare with care: the assays were run in different laboratories. Several values in a cell are separate wells, animals, samples, runs or records. ± gives the spread as reported.

SMILES | cell line | test | test system | conditions | how to read | measurement | result
C=CC1=C(C)c2cc3[n-]c(cc4nc(cc5[n-]c(cc1n2)c(C)c5C=C)C(C)=C4CCC(=O)O)c(CCC(=O)O)c3C.[Zn+2] | SH-SY5Y | RNA-seq, measured: EDN1 mRNA |  | 5 µM, 5 h | relative to: untreated cells | fold change | 3.65
N#Cc1c(Oc2ccc(F)c(NC(=O)Cc3cccc(C(F)(F)F)c3)c2)ccc2nc(NC(=O)C3CC3)sc12 | SK-MEL-239 | ERK phosphorylation, inhibitor, Western blot, measured: p-ERK/total ERK |  | 1 h |  | IC75 | 427 nM
COc1c(Cl)cc2c([nH]c3cnccc32)c1NC(=O)c1cccnc1C | hiPSC-derived cardiomyocytes (iCell) | impedance (xCELLigence Cardio) |  | concentration not given, 2 h | relative to: control | beat amplitude | 98.6%
CC/C(=N\NC(=O)NCc1cccc(O)c1)c1ccc(O)c(C)c1O | SK-OV-3 | Western blot |  | 10 µM, 24 h, 3D gellan gum culture, unit not given | relative to: DMSO | LATS band intensity | 1 ± 0.24
CC1(C)CCC(CN2CCN(c3ccc(C(=O)NS(=O)(=O)c4ccc(NCC5CCOCC5)c([N+](=O)[O-])c4)c(Oc4cnc5[nH]ccc5c4)c3)CC2)=C(c2ccc(Cl)cc2)C1 | THP-1 | annexin V/PI flow cytometry, measured: annexin V-/PI+ |  | 3.2 µM, 24 h |  | necrotic cells | 0.2%
OCc1ccc(-c2nn(Cc3ccccc3F)c3ccccc23)o1 | RBE | cell viability, CellTiter-Glo |  |  |  | IC50 | 1190 nM
Cc1cc(N2CCc3c(c(C)nn3CC34CCC(NC(=O)[C@@H]5COCCN5)(CC3)CC4)C2)c2cnn(C)c2n1 | human PBMC | ISG expression, qRT-PCR, measured: 5-ISG panel |  | 100 nM, with: ssRNA |  | inhibition | 96 ± 1%
COc1cnc2cccc(N3CCc4c(cc(Cn5ccnc5C)cc4-c4cn(C)nc4C(F)(F)F)C3=O)c2c1 | ASPC1 | cell growth, inhibitor |  | 120 h |  | EC50 | 504 nM
CCN(Cc1ccc(F)cc1)c1ccc(CO)c(Cl)c1 | RBE | cell viability, CellTiter-Glo |  |  |  | IC50 | 160 nM
Nc1ccn([C@@H]2O[C@H](CO)[C@@H](O)C2(F)F)c(=O)n1 | HPAC | cell viability, MTT |  | mutant KRAS primary |  | IC50 | > 10000 nM
O=c1[nH]nc(OCCCc2ccc(Cl)cc2)c(NCc2cccnc2)c1Br | HEK-293T | RNA-seq GSEA, measured: HALLMARK_IL2_STAT5_SIGNALING |  | concentration not given | direction not given | normalized enrichment score | 1.15
Cc1ccc(CNC(=O)Cn2cc(CSc3nc4ccccc4[nH]3)nn2)cc1 | MDA-MB-231 | MTT |  | 62.5 ppm |  | cytotoxicity | 89.4%
Cc1cc(Nc2ncc(Cl)c(Nc3ccccc3S(=O)(=O)C(C)C)n2)c(OC(C)C)cc1C1CCNCC1 | CLB-GE | phosphoproteomics LC-MS/MS, measured: PDCD11 phosphorylation |  | 200 nM, 60 min | relative to: untreated | log2 fold change | -1.64
CC(C)NCC(O)c1ccc(O)c(O)c1 (stereo not drawn) | mouse ventricular cardiomyocytes |  |  | dose not given, 0.079 s |  | sarcomere length | 1.78 µm
CCCCc1oc2ccc(NS(C)(=O)=O)cc2c1C(=O)c1ccc(OCCCN(CCCC)CCCC)cc1 | human embryonic stem cell aggregates | mRNA level, microarray, measured: DKK1 |  | 0.5 µM, 120 h | relative to: untreated, down-regulated | fold change | 3.4 fold
Cc1sc2c(c1C)C(c1ccc(Cl)cc1)=N[C@@H](CC(=O)NCCCCCCCCNC(=O)COc1cccc3c1C(=O)N(C1CCC(=O)NC1=O)C3=O)c1nnc(C)n1-2 (stereo partly drawn) | 4T1 | Annexin V-FITC/PI flow cytometry |  | concentration not given |  | early apoptotic cells | 3.44% and 2.64% and 2.62%
COc1ccc(-n2nc(C(C)=O)s/c2=N\N=C(/C)c2ccc(NC(=O)c3ccc(C)cc3)cc2)cc1 | MCF7 |  |  | 2.5 µM |  | toxicity | 97%
c1ccc2[nH]ccc2c1 | HCT-8 | RNA-seq, measured: FAM167A |  | concentration not given |  | mRNA level, LS mean | 3 counts per million
Cc1[nH]nc2ccc(-c3cncc(OC[C@@H](N)Cc4ccccc4)c3)cc12 | hiPSC-derived cardiomyocytes (iCell) | impedance |  | concentration not given, 24 h | relative to: control | cell index | 95.2%
CCOC(=O)c1ccc(-c2nn(Cc3ccccc3)c3ccccc23)o1 | RBE | cell viability |  | 46 µM |  | inhibition | 35%
Cc1nn(-c2nc3c(F)cc(F)cc3s2)c(O)c1C(c1ccc(C(F)(F)F)cc1)c1c(C)nn(-c2nc3c(F)cc(F)cc3s2)c1O | THP1-Dual | western blot |  | 10 µM, with: HT-DNA | relative to: DMSO | phospho-IRF3 to IRF3 ratio | 0.863 and 0.935 and 0.807
Cc1cccc(-c2[nH]c(CNc3ccccc3F)nc2-c2ccc3ncnn3c2)n1 | CD8+ T cells from myeloma patient | ELISA | human | 1 µM |  | TNF-alpha production | 0.927% and 0.903% and 1.09% and 0.962% and 1.08% and 1.04%
NC(=O)NO | HCT-116 | cell growth, live-cell imaging |  | 400 µM, control at 90% confluence |  | cell confluence | 11.4 ± 2.17%
CCN(Cc1cccc(F)c1F)c1ccc(CO)c(Cl)c1 | RBE | cell viability, CellTiter-Glo |  |  |  | IC50 | 130 nM
CC(=O)c1nn(-c2ccc(Cl)cc2)/c(=N/N=C(\C)c2ccc(NC(=O)c3ccc(C)cc3)cc2)s1 | MCF7 |  |  | 1.25 µM |  | toxicity | 82.1%
CCN(Cc1cccc(F)c1)c1ccc(CO)c(Cl)c1 | RBE | cell viability, CellTiter-Glo |  |  |  | IC50 | 160 nM

SMILES | cell line | test | test system | conditions | how to read | measurement | result
CCn1c2ccc(CNCCOCCOCCOCCC(=O)NCCOc3ccc(CCc4nc5cc(-c6c(C)noc6C)ccc5n4CCN4CCOCC4)cc3F)cc2c2ccc(-c3cc(C)cs3)cc21 | NCI-H1299 expressing p53 Y220C | RT-qPCR |  | 3 µM, 24 h | relative to: DMSO | DUSP5 mRNA level | ~3 fold
Cc1nn(-c2ccccc2)c(C)c1C(=O)Nc1ccc2ccccc2n1 | Wnt-HEK293 | Wnt/β-catenin signalling, inhibitor, luciferase reporter |  | 1 µM |  | inhibition | 80%
Cc1ccc2[nH]c(CSc3nnc(NC(=O)c4ccccc4C)s3)cc(=O)c2c1 | BV-2 | measured: caspase-8 |  | 30 nM, with: high glucose | relative to: high glucose | protein level | decreased
Cn1cc(-n2cnc3c(NCc4nc5cc(Cl)c(Cl)cc5[nH]4)nc(N4CCOCC4)nc32)cn1 | MDA-MB-231 | qRT-PCR, measured: RAD51 |  | 0.05 µM, 6 h, unit not given | relative to: DMSO | mRNA level | 0.635 and 0.619
Cc1cnc(NC2CCOCC2)nc1-n1cnc(C(=O)NC(CN)c2cc(F)cc(Cl)c2)c1 (stereo not drawn) | Rec1 | flow cytometry |  | 1 µM, 72 h |  | G2 phase cells | 21.4%
CCn1cc(-c2cc(Cn3ccnc3)cc3c2CCN([C@H](c2cc(OC)ccn2)C2CC2)C3=O)c(C(F)(F)F)n1 | ASPC1 | cell growth, inhibitor |  | 120 h |  | EC50 | > 30000 nM
Nc1ncnc2c1ncn2[C@@H]1O[C@H](CO)[C@@H](O)[C@H]1O | activated human T cells |  |  | 3.16 µM, 72 h | higher = more viable cells | viability | 82.4 a.u. and 80.5 a.u. and 86.3 a.u.
C[C@H](Nc1ccc2c(c1)OCCn1cc(N3C(=O)OC[C@H]3C(F)F)nc1-2)C(N)=O | EFM-19 | growth rate inhibition, CellTiter-Glo |  | 120 h |  | IC50 | 21.9 nM
Cc1c(C(=O)O)ccc2c3n(nc12)[C@@H]1[C@H](C3)N(CC2CC2)[C@@]2(C(=O)Nc3cc(Cl)ccc32)[C@H]1c1cccc(Cl)c1F | LS174T | cell growth, alamarBlue |  | unbound, 4.5% of total |  | IC50 | 0.61 nM
CCCN1CCN(c2ccc3nc(-c4ccc5nc(-c6cc(OC)ccc6OC)[nH]c5c4)[nH]c3c2)CC1 | SF-295 | SRB |  | 10 µM, 48 h |  | growth percent | 104%
C=Cc1c2[n-]c(c1C)/C=c1\[n-]/c(c(C)c1C=C)=C\c1[n-]c(c(CCC(=O)O)c1C)/C=c1\[n-]c(c(C)c1CCC(=O)O)=C2.[Sn+4] | SH-SY5Y | RNA-seq, measured: ELL2 mRNA |  | 5 µM, 5 h | relative to: untreated cells | fold change | 2.24
NC(=O)NOCCCCCCCCCCCCCC[P+](c1ccccc1)(c1ccccc1)c1ccccc1.O=C([O-])C(F)(F)F | HCT-116 | cell growth, live-cell imaging |  | 0.03 µM, control at 90% confluence |  | cell confluence | 88.5%
COc1nc(NCc2cn(-c3ccc(C(=O)Nc4ccccc4)cc3)nn2)nc(OC)n1 | HCT-116 | flow cytometry |  | IC50, 24 h |  | cell cycle phase %G0-G1 | 57.2%
COc1cc2c(Oc3ccc(NC(=O)C4(C(=O)Nc5ccc(F)cc5)CC4)cc3F)ccnc2cc1OCCCN1CCOCC1 | hiPSC-derived cardiomyocytes (iCell) | impedance |  | concentration not given, 24 h | relative to: control | cell index | 78.9%
OCc1ccc(-c2nn(CCc3ccccc3)c3ccccc23)o1 | RBE | cell viability, CellTiter-Glo |  |  |  | IC50 | 5820 nM
OCCCN1CC[C@@H]2C[C@H]1c1cc(-c3ccc(C(F)(F)F)cc3)ccc12 | neurons, DRG, mouse, wild type | measured: p-eIF2α |  | 100 nM |  | time to maximal effect | 16 h
C=CCn1c(=O)c2cnc(Nc3ccc(N4CCN(C)CC4)cc3)nc2n1-c1ccc2c(n1)[C@@](O)(CC)CC2 | NCI-H1048 | flow cytometry, measured: pHH3+γH2Ax+ |  | concentration not given |  | G2/M cells in subpopulation | 5.1%
NC(=O)NOCCCCCCCCCC[P+](c1ccccc1)(c1ccccc1)c1ccccc1.O=C([O-])C(F)(F)F | HCT-116 | cell growth, live-cell imaging |  | 3 µM, control at 90% confluence |  | cell confluence | 64.3%
Clc1nc(NCc2ccco2)c2[nH]cnc2n1 | FD iPSC-derived cardiomyocytes | alternative splicing, RNA-seq, measured: EEF1D exon chr8:143581285-143581706 |  | unit not given | relative to: DMSO minus compound | ΔPSI | 0.244
CCn1cc(-c2cc(Cn3ccoc3=N)cc3c2CCN([C@@H](C)c2cc(OC)ccn2)C3=O)c(C(F)(F)F)n1 | NCI-H1373 | cell growth, inhibitor |  | 120 h |  | EC50 | > 30000 nM
COc1ccc(COc2ccc(Cc3cnc(N)nc3N)cc2OC)cc1 | hiPSC-derived cardiomyocytes (iCell) | impedance (xCELLigence Cardio) |  | concentration not given, 2 h | relative to: control | beat rate | 102%
Cn1cc(-c2ccc(-c3cncc(Cl)c3N3CCC4(CCNC4=O)CC3)cc2)cn1 | COLO 205 | gene expression, microarray, measured: BHLHE41 mRNA |  | concentration not given, 2 h | relative to: untreated cells | log2 fold change | 5.36
O=C(/C=C/C=C/C=C/C1CCCCC1)NC1=C[C@@](O)(/C=C/C=C/C=C/C(=O)NC2=C(O)CCC2=O)[C@@H]2O[C@@H]2C1=O | IGR-39 | cell growth, CellTiter-Glo |  | 78 h |  | GI50 | 13300 nM
NC(=O)NOCCCCCCCCCCCCCCCCCCCC[P+](c1ccccc1)(c1ccccc1)c1ccccc1.O=C([O-])C(F)(F)F | HCT-116 | cell growth, live-cell imaging |  | 0.01 µM, control at 90% confluence |  | cell confluence | 89.9 ± 2.91%
Nc1cccc2c1C(=O)N(C1CCC(=O)NC1=O)C2=O (stereo not drawn) | RPMI-8226 | flow cytometry, measured: CD117 |  | concentration not given | relative to: comparator compound alone | surface marker level | 155%
